Published values of several laboratories.
Parts stem from different laboratories: compare values within a part only.

Sample 1
Target: RNA binding protein fox-1 homolog 2, RRM domain, GST-SBP tag (RBFOX2, Homo sapiens, UniProt O43251-10, residues 100-194)
Method: RNA Bind-n-Seq
Molecule type: RNA
Sample: in vitro
Concentration: 365 nM
Setting: natural RNA segment, single round, ends assumed
Baseline: no-protein control
Reading: higher = stronger binding
Target sequence (chain): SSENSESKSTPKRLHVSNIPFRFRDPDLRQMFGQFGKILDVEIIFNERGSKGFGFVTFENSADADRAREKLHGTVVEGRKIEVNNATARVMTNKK
Oligonucleotide	RBNS enrichment (R)
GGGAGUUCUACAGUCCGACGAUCACUGAACAGAAUUAUAGACAUUUGCUGGUGGAAGGGAUAACUAUGUACAUCUAACUAGGACUCAGAAAGAGCUCCUGCGCAUGGUCAUAGAACAAUGGCGUUCUGUAAUUUGGAAUUCUCGGGUGCCAA	11.9
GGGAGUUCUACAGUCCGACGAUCCUGCGUAUGUUAAGAGGAAAUCAGUUUAAAAUGCCUGCUAAUCAAAUGUCGACUCAGCUAACCAUAUGUCCAGGUUGCUGCAGAGUUUCUUUCAAAUCUGAGUGUUGCCUUGGAAUUCUCGGGUGCCAA	13.6
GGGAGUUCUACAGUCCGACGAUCGGCAACAGAGCUAGACUCUGUGUCAAAAAUAAAUGACUAGAUAAAAAAAAAAAUUGUUUGAGUACAUUUUCCCUGCAUUUUAGAGAUUAGGACAGUGGUCACUUUCUAGUUGGAAUUCUCGGGUGCCAA	0.509
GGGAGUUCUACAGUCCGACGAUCCCCUUUCAUAAAAACCAAACUGUAGCAAGAUGCAAAUGCAUGGCAAAUCCUGUCGGUCUCCAGUUGGUUAUCUGAAUAGUGUCACCAAUUCCACCAAGACAGUGCUGAGAUGGAAUUCUCGGGUGCCAA	1.18
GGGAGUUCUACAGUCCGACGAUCUUCGGAUAGUAGGCUCUCCCUGCUCCCUUCUCUACAGGAAUCUCUGGAAAACUAUCAGAAGACAAAGUUUGACACCUUGAUACCCACUCUCUGUGAAUACCUACCCCCUUUGGAAUUCUCGGGUGCCAA	0.428
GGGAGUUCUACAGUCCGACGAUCACAGUGGUAAAAACCAAACUACCUUGAAUUUUUUUAAGGCAACUUAUGAAUAAUGCUCAUUUUCACAGUCAGAAUAGCUUUAAAAUAUGGUUGAAUUUGAUACACACAGGUGGAAUUCUCGGGUGCCAA	0.42
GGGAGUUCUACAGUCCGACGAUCGUAGGGAGGACAGACUGUCACUUGCUGUUACAGGCACAGGUGAUUAAAAUGCUAAAUAUUGCAAAUUUAAGCUUUGUCAGUAUAUGGAAAAGUUGAAGGGAAAAUACUGGUGGAAUUCUCGGGUGCCAA	0.459
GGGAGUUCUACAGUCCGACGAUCUAACUGGCAAGGGAUGAUGUCAGAUUCAGCCCAAGGUUCCUCCUCUCCUACCAAGCAGGAGGCCAGGAACUUCUUUGGACUUGGAAGGUGUGCGGGGACUGGCCGAGGCCUGGAAUUCUCGGGUGCCAA	0.497
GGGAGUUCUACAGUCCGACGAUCGUGGCCCCACCCUCCAUUCCGGACCCCAUGGGCCCAGCCCCUGCCCAUCUAGUUGGUUUGGGGACCCUGGUGCAUGCUAGUGGGCAUGGGAUCAGCCAAGCUUCGUUCCAUGGAAUUCUCGGGUGCCAA	1.29
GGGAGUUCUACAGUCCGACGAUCUGGGCCUAGGAGAGGCUUUGGACCUGGGAGCCACACCUAGGAGCAAAGUCUCACCCCUUUGUCUACGUUGCUUCCCCAAACCAUGAGCAGAGGGACUUCGAUGCCAAACCUGGAAUUCUCGGGUGCCAA	0.32
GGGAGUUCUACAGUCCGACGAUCGUUCCCUUUAACUGUGCCUCAGUGUGGGUUAGGGAACAAUUUUGUUAUUGUAUUAAGUUUAUUCAGUUAAUUCACUUGAGGAACUAACCAGUUUUUACUUUCUGUCUAGAUGGAAUUCUCGGGUGCCAA	0.326
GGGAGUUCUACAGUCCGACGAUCGAUAUUUUCAGAUAACUAGGAUAACUUGUUGCUUUGUUACCCAGCCUAAUUGAAGAGUGGCAGAGGCUACUACAAAAAGCAACCUUUUCAUUUUCACUAAGAGUUUAAAAUGGAAUUCUCGGGUGCCAA	0.318

Sample 2
Target: Prothrombin, mature alpha-thrombin (F2, Homo sapiens, UniProt P00734)
Method: aptamer microarray, sandwich
Molecule type: DNA with 2'F-ANA
Sample: in vitro
Concentration: 200 nM
Setting: whole 15-mer aptamer, many near background
With: Cy3 exosite-II aptamer, 400 nM
Reading: higher = stronger binding
Oligonucleotide: GGTTGGTGTGGTTGG
Modification	mean fluorescence intensity
2'F-ANA at 3 6 10 11 12	576 a.u.
2'F-ANA at 1 4 10 11 12 15	54.7 a.u.
2'F-ANA at 2 5 8 9 11 15	62.6 a.u.
2'F-ANA at 2 3 8 9 11 13 14 15	361 a.u.
2'F-ANA at 2 3 4 5 8 11 13 14	48.1 a.u.
2'F-ANA at 8 13 15	518 a.u.
2'F-ANA at 2 3 5 6 7 12 13 14	53.6 a.u.
2'F-ANA at 3 6 7 8 9 14 15	561 a.u.
2'F-ANA at 1 6 8 12 14	76.1 a.u.
2'F-ANA at 1 2 3 4 7 11 14	95.6 a.u.
2'F-ANA at 1 2 5 6 7 8 9 10 11 12 13	81.1 a.u.
2'F-ANA at 2 5 6 8 9 11 15	65.2 a.u.
2'F-ANA at 1 3 4 6 7 8 9 11 12 14	75.9 a.u.
2'F-ANA at 1 2 3 4 5 7 9 10 15	49.6 a.u.
2'F-ANA at 1 3 5 8 11 12 13 15	92.3 a.u.
2'F-ANA at 1 5 12	127 a.u.
2'F-ANA at 1 3 5 6 8 9 11	59.5 a.u.
2'F-ANA at 2 4 5 8 9 10 11 12 14 15	46.7 a.u.
2'F-ANA at 1 3 4 5 7 8 9 11	58.6 a.u.
2'F-ANA at 1 2 3 8 9 10 13 15	66.6 a.u.

Sample 3
Target: Ras GTPase-activating protein-binding protein 1, full length (G3BP1, Homo sapiens, UniProt Q13283)
Chain of UniProt Q13283 (whole entry, looked up): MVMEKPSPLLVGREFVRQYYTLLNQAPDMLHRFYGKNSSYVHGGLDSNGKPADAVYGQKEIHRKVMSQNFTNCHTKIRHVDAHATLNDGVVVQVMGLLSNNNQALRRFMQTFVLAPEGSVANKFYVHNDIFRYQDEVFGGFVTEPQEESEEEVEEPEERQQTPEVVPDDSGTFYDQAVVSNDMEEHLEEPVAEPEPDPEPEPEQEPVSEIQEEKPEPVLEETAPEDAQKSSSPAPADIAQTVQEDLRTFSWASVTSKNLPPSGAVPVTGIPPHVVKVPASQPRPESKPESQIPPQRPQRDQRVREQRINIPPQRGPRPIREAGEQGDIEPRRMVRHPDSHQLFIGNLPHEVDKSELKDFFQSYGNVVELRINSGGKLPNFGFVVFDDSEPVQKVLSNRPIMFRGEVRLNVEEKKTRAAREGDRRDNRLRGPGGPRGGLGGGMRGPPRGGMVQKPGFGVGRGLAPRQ
Method: RNA Bind-n-Seq
Molecule type: RNA
Sample: in vitro
Concentration: 200 nM
Setting: whole 134-nt RNA, ends assumed
With: 150 mM KCl
Baseline: input library
Reading: higher = stronger binding
Oligonucleotide	log2 enrichment
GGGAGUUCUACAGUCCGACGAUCUGUACUCGGAAGUUUCACUUACCAUCGACCACUCUCUGAUUCCGGAGGAGAGGCUCUCGCCCACCCCAUCCAUGCAGGAUGGGCUCGACCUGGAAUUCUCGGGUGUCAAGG	0.0211
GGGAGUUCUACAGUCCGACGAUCAAGUCCUGUGCUACACAUCGUAUGUACCGAAUCGGGAAAGGGUUUUUUUGGGUGGGAAAGUAUUAUGUUACGCCGUUCGGAUCUGCACUUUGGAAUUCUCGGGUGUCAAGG	0.238
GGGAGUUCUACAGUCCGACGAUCCACAGACAACACGCACCCACACAGACACAGAGGGAAGGGGUUGGGAUGGGGACAGGGUGCACAGGAGGGCGGGGUAGGACCCCAGCCCCUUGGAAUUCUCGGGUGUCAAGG	1.66
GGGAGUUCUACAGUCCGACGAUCCCUGUGCUACACAUCGUAUGUACCGAAUCAAACCCCCAAACCCCCCCAAACCCCCCCAAAAAAGUAUUAUGUUACGCCGUUCGGAUCUGCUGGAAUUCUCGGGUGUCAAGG	0.218
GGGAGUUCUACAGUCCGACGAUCCAAGUCCUGUGCUACACAUCGUAUGUACCGAAUCGGGGUUUGGGGUUUGGUUUGGGAAAGUAUUAUGUUACGCCGUUCGGAUCUGCACUUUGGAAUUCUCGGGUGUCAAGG	0.0343
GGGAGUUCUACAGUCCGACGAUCUGGAAGUGGCGCUGGCGCCUGAAGAGUUGGAGCUGGAUCCUAUGGCCAUGACCCAGAAGUAUGAGGAGCAUGUGCGGGAGCAGCAGGCUCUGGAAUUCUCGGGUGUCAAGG	0.149
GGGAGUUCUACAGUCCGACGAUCAGUCCUGUGCUACACAUCGUAUGUACCGAAUCGGAAAGGAAAAAAAGGUUUUUUUGGAAAGUAUUAUGUUACGCCGUUCGGAUCUGCACUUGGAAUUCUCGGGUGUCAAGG	-1.64
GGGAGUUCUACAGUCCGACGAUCCUGUGCUACACAUCGUAUGUACCGAAUCGGGGAAAAAAAGGGGAAAAAAAGGGGUUUGGGGAAAGUAUUAUGUUACGCCGUUCGGAUCUGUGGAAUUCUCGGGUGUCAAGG	-0.402
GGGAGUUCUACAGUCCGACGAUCCUCAAGUCCUGUGCUACACAUCGUAUGUACCGAAUCGGUGGAAAAAAAGGUGGAAAGUAUUAUGUUACGCCGUUCGGAUCUGCACUUCCAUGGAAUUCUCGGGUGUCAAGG	-0.363
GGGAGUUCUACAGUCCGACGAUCUCCUGUGCUACACAUCGUAUGUACCGAAUCGGGGCCCCCGGGGCCCCCGGGGCCCCCGGAAAGUAUUAUGUUACGCCGUUCGGAUCUGCAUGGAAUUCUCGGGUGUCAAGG	0.374
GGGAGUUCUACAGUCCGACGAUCUCCUGUGCUACACAUCGUAUGUACCGAAUCAAACCCCCCCAAACCCAAACCCCCCCAAAAAAGUAUUAUGUUACGCCGUUCGGAUCUGCAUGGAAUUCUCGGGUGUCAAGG	1.38
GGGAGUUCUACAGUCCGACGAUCGUCCUGUGCUACACAUCGUAUGUACCGAAUCGGGUUUUUUUGGGUUUUUGGGUUUGGGAAAGUAUUAUGUUACGCCGUUCGGAUCUGCACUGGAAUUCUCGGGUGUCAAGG	-0.479
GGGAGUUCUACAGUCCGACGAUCCUCAAGUCCUGUGCUACACAUCGUAUGUACCGAAUCGGGGUUGGUUGGUUGGGAAAGUAUUAUGUUACGCCGUUCGGAUCUGCACUUCCAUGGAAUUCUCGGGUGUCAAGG	0.0779
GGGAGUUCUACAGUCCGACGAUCAAGUCCUGUGCUACACAUCGUAUGUACCGAAUCGGAAAAAAAGGUUUUUUUGGAGGAAAGUAUUAUGUUACGCCGUUCGGAUCUGCACUUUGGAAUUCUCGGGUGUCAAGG	-1.71

Sample 4
Target: Sal-like protein 4, full length isoform A (SALL4, Homo sapiens, UniProt Q9UJQ4, residues 1-1053)
Chain of UniProt Q9UJQ4 (whole entry, looked up): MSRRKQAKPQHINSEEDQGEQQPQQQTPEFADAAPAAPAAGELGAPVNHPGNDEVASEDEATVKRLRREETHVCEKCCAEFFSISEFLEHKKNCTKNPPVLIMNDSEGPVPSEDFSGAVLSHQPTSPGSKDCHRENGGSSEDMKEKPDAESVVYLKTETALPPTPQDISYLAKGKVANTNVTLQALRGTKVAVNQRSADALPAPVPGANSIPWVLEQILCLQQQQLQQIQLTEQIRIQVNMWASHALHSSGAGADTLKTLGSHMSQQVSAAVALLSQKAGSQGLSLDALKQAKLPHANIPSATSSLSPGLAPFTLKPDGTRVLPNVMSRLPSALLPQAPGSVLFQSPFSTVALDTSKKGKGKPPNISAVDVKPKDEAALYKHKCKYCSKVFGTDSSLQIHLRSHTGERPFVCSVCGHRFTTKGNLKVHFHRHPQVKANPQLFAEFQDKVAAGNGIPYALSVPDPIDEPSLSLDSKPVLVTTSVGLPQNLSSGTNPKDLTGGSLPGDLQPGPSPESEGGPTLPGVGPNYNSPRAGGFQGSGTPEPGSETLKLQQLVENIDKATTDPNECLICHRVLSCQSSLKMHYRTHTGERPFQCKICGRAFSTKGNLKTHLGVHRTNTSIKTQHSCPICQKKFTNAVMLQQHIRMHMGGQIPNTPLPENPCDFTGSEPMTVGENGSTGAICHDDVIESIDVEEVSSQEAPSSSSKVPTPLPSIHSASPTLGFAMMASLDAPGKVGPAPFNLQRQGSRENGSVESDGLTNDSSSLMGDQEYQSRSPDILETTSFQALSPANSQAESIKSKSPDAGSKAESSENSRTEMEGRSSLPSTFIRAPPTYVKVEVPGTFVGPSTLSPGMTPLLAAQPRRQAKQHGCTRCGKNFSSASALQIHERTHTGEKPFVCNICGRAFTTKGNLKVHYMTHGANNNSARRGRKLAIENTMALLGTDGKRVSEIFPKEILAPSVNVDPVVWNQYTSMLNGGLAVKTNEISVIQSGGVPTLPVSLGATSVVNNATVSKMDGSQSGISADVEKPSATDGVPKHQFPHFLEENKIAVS
Method: universal PBM
Molecule type: double-stranded DNA, one strand shown
Sample: in vitro
Concentration: 600 nM
Setting: 8-mer, flanks averaged, mean of replicates
Reading: higher = stronger binding
Oligonucleotide	E-score
CGTAAACA	0.0916
GCCTGACC	-0.175
CAATCACC	-0.00822
TGAATAAA	0.295
ACCAATGC	-0.111
CCACGTGG	-0.468
ATGTTTGC	0.0949
AACCGAGG	-0.227
ACTATCGA	0.0424
GTAGAATA	0.295
AAAACGCT	0.112
GCGAGAGC	-0.246
CCACACGA	-0.185
CCCGTACG	-0.309
GCGAAGGA	-0.12
TAGTACAA	0.127
CCTAACGC	-0.0388
GACACCGA	-0.155
AGCTGTTG	0.0733
CCACCTAC	0.0326
CCAGTCTA	-0.231
GAAAAAGA	0.154

For quick reference, copied from above (sample 4):
Oligonucleotide	E-score
CGTAAACA	0.0916
GCCTGACC	-0.175
CAATCACC	-0.00822
TGAATAAA	0.295
ACCAATGC	-0.111
CCACGTGG	-0.468
ATGTTTGC	0.0949
AACCGAGG	-0.227
ACTATCGA	0.0424
GTAGAATA	0.295
